Results from different studies.
A part holds a random share of what one study measured.

Sample 1 — method: aptamer microarray, sandwich; form: DNA with 2'F-ANA; matrix: in vitro; tested at: 200 nM; with: Cy3 exosite-II aptamer, 400 nM; direction: higher = stronger binding; strand: GGTTGGTGTGGTTGG
Target: Prothrombin, mature alpha-thrombin (F2, Homo sapiens, UniProt P00734)
Setting: whole 15-mer aptamer, many near background
Modification	mean fluorescence intensity [a.u.]
2'F-ANA at 4 5 6 7 8 9 10 12 13 15	48.4
2'F-ANA at 1 2 3 5 7 8 9 13	78.2
2'F-ANA at 3 5 6 9 11 13 15	67.4
2'F-ANA at 1 5 8 9 10 13 15	43.5
2'F-ANA at 1 2 3 6 9 11 12 13 14 15	74.8
2'F-ANA at 4 5 6 7 8 9 14	50.3
2'F-ANA at 1 4 7 8 9 10 15	54.3
2'F-ANA at 2 6 8 9 10 12 14	86.2
2'F-ANA at 2 8 10 12 14	88.5
2'F-ANA at 2 5 6 7 9 12 14 15	47.6
2'F-ANA at 1 4 7 8 9 10 11 12 15	57.4
2'F-ANA at 2 7 8 9 10 11 12 14 15	102
2'F-ANA at 6 7 8 11 13 14 15	180
2'F-ANA at 1 4 6 7 9 11 12 14 15	57.7
2'F-ANA at 3 4 6 7 10 13	315
2'F-ANA at 1 4 8 9 11 12 13	188

Sample 2 — method: protein binding microarray; form: double-stranded DNA, one strand shown; matrix: in vitro; tested at: not given; reference: not given; direction: higher = stronger binding
Target: Histone acetyltransferase KAT6A, winged helix 2, GST fusion (KAT6A, Homo sapiens, UniProt Q92794, residues 85-181)
Setting: 8-mer, flanks averaged, mean of 2 arrays, mostly near background
Residues (chain): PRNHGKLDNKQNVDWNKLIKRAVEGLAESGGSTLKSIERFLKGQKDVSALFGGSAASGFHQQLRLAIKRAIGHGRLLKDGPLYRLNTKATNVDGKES
Strand	E-score
GCAACTTA	-0.0192
AATCTTTA	0.0655
AAAAGCCG	0.0238
AGCAAGAA	0.0363
CAGCTACA	-0.133
ACCGCCGG	0.188
CCGGTTAA	0.114
CTCCCCAC	0.00305
AAGAAGGT	-0.0124
CTCCCCAA	0.0461
AAATGAAG	0.038
CTCCGCTC	0.0833
CATTTCTC	-0.0317
TAGGGTAA	-0.0532
CCGTCAAC	0.0392
CCAACGTC	-0.215
AAGTATCG	0.0742

Sample 3 — organism: Saccharomyces cerevisiae; read-out: cell growth; method: competitive growth deep sequencing; form: peptide; setting: peptide tiling library; with: cyclin F-Cln2 fusion; direction: direction not given
Molecule	enrichment score
DKYDEGLYRFNSLNDL	-0.0021
KRCATPVIIDEILPSK	0.227
AEHPKPSACRNLFGPV	3.93
LENIEPLQVSFAVLSS	0.689
NESHLDKEHDAVEVAD	0.501
VKRLNFRSEEME	1.55
VLPGGVPSPGASLTSM	0.273
EHCRVLFLDHVMYTIH	0.462
SPPRGRRLFPPGPAGF	2.84
GTPKRCLDLSNLSSGE	1.1
ASVLSKPIFCFVKD	0.145
RQVRRDLFAF	0.305
EPRNLLSLFEDTLDPT	3.01
DVSERGYVILPNDYFE	0.523

Sample 4 — method: RNA Bind-n-Seq; form: RNA; matrix: in vitro; tested at: not given; reference: input RNA pool; direction: higher = stronger binding
Target: RING finger protein unkempt homolog, zinc fingers 1-6, GST-SBP tag (UNK, Homo sapiens, UniProt Q9C0B0, residues 30-357)
Setting: RNA with constant flanks, human-mouse chimeric sites, ends assumed
Residues (chain): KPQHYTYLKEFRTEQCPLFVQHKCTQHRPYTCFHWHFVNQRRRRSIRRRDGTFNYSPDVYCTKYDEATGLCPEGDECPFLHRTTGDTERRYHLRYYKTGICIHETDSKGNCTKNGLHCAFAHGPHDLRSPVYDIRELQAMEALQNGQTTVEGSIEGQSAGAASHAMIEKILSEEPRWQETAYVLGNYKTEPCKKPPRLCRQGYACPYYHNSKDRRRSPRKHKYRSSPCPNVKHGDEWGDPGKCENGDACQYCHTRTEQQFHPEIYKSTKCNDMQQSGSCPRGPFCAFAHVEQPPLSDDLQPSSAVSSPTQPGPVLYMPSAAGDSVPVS
Strand	bound/input enrichment [ratio]
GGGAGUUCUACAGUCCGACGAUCGAAACUAUUCCUAAAGAGGAGAAAGCUGAGAAGGAUGCUCGGAGAUCAUCUCUUGAGAAACAUAGAAAAGAAAAGCCUUUUAAAACCGGGAGAGGCAGAAUUUCCACUCCUGAAAGAAAACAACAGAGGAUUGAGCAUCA	0.252
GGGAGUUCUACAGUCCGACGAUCAAUUUCCUGUCAUACUUUGUAGCAAGACACAUCAGACUUACAGAGCACCUGGCCACAUUCUAGGUUUGAAUUAUUUCUCAGCUAUGGAUAUGAUCAAAUGAGAACACUGCUUAACUAAUGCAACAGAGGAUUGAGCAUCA	0.345
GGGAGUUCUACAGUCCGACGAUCAGAAUCUUGGGACUGUUUUACUUAAUUGGUCAUUGGUAUCUCAACAAACAUGGAGAUAAGAUUAGAAAUCUUGACAUCAACAGGUAUUAAGCAGAAAAAACCAUGGCCACGUGUCUCCUGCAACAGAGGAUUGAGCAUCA	0.117
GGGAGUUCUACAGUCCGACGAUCGAAUCCUACUCAGGCGGAUUUUGCAACACCAAGCUCACAGCAGCAGCUCCAUAGUCACAGUUAGGUAGUUUUGGGGCUCUGUGGCCAGGGUUUUAUUCACAUGCAGGUUUGGAAAAUGUACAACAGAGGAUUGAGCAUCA	1.78
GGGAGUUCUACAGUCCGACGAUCGGAUUCCGCUUCCGGUUCCGUUGGGCUCGGUUCUCUCCUGAGCUACGUGUCUCUACGUUUUAGGUGUGCCAUCCAACAAACAUGGAUCAGGUAAUGCAGUUUGUGGAGCCCAGCCGGCAGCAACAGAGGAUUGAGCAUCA	0.0766
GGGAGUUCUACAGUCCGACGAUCGUAGCUGGGACUACAGAAGAAUGCUGAAUUUCAGUCACUUGCUGAUGACUUCUGAUGUCCCAGCAAAUGUUGGCAUUCACUGCAAUAGAGAAGAUACUUCUGAGGACCCACGUCUAAGGUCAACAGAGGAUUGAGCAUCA	0.254
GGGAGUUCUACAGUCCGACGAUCAGAGAUAAGACAUCCAGGAACAUGCGAGGGUCACGGAUGAAUGGGUUGCCUAGCCCCACUCACAGCGCCCACUGUAGCUUCUACCGAACCAGAACCUUGCAGGCACUAAGUAAUGAGAAGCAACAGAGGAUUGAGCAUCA	0.236
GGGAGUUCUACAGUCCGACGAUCCUGGCACUCUAUCAGAUAUAUUAAUUUUUUAAUGUAGAUGUAAUUUUAAAAAUGAAUGGCUACUUUACACGUUUAACUAGGGUUUUACUAUAUAUGUGUGUGUAUAUAUAUGUAUUUAUACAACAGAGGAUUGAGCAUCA	9.53
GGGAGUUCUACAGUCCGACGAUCAGAUUCCCCCUCCUGAGACCUCCUCCGAAGUUGGAGUCUCUUACAGAUGCCUCAUCCCCUGUUAGCGUUUUGGUCUGGACCACCCAGCCUUGGACAAUUCCAGCCAACCAGGCAAUUUGCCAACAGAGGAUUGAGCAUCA	0.497
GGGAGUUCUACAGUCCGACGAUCGUGCCCUCCUUCUCGCUGCGGAGCCCGAGCUGGGAACCAUUCCGGGACGACUGGUACGCACACAGCCGCCUCUUCGAUCAAGCUUUCGGGGUGCCCCGGUUGCCCGAUGAGUGGUCGCAGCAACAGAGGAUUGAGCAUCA	0.111
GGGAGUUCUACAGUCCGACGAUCGGCCUGGGACCGUCCUGGCUAGUGCAAAUAGCGGCAGGUGGAGGCUCGAGAGGAAAGUUUGUUAGUGGAGGCAGUGGUAGAGGCCGUCAUGUACGGUCCUUUACUCGAUAGAUGUGUUCUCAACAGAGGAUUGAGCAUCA	0.691

Sample 5 — method: universal PBM; form: double-stranded DNA, one strand shown; matrix: in vitro; tested at: 600 nM; direction: higher = stronger binding
Target: Sal-like protein 4, full length isoform A (SALL4, Homo sapiens, UniProt Q9UJQ4, residues 1-1053)
UniProt Q9UJQ4, sequence (whole entry, looked up): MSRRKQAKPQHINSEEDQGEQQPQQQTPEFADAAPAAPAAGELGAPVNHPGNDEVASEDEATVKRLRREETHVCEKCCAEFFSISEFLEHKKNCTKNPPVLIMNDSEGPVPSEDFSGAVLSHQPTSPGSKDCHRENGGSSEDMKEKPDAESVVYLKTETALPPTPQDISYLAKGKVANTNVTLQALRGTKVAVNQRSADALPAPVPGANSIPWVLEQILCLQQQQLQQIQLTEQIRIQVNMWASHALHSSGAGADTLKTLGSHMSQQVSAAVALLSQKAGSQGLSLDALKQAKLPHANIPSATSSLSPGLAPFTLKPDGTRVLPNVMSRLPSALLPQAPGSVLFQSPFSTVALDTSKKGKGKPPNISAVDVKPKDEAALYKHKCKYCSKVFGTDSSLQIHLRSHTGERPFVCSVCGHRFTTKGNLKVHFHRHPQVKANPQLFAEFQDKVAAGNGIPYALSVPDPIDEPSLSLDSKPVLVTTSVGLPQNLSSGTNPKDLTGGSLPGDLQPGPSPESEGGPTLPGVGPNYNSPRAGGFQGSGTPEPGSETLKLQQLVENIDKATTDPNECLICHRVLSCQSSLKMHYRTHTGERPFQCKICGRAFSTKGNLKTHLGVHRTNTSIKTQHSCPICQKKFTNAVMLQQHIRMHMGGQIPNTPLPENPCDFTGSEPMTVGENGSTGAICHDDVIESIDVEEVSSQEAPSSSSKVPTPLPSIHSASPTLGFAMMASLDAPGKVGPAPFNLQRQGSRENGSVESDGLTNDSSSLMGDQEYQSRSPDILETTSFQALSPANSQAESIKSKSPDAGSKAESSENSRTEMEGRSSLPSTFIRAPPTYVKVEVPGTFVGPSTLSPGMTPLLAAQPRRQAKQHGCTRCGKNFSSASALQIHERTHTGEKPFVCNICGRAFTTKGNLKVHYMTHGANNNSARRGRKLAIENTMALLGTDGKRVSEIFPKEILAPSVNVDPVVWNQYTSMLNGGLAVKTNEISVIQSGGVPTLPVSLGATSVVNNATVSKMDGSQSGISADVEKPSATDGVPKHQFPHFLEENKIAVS
Setting: 8-mer, flanks averaged, mean of replicates
Strand	E-score
ATTTCCAG	0.0832
CGTGCAGC	-0.235
CCCTGGAC	-0.365
CTTTCTGA	0.15
TTAAGGAA	0.125
AATGCACC	-0.0609
GCCCTCCA	-0.296
ACCGGACG	-0.207
GACCGCAC	-0.231
AATGAATC	0.16
CCCAACGG	-0.28
ACGGTGCG	-0.281
CTAATCCC	0.00656
CCGGTACC	-0.296
AGCGATCG	-0.13
TGGAGCCA	-0.147
AAATTCAC	0.138
ACCGCGAT	-0.0762
